# Measured values from different studies.
# A part holds a random share of what one study measured. Changes are numbered by the printed parent chain.

# Sample 1 — method: protein binding microarray; molecule type: double-stranded DNA, one strand shown; matrix: in vitro; tested at: not given; reference: not given; direction: higher = stronger binding
# Target: Histone acetyltransferase KAT6A, winged helix 1, GST fusion (KAT6A, Homo sapiens, UniProt Q92794, residues 1-85)
# Notes: 8-mer, flanks averaged, mean of 2 arrays, mostly near background
# Target sequence (chain): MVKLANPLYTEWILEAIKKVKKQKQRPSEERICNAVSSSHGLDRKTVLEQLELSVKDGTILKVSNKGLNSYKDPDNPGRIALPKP
Sequence,E-score
CGACAGCC,0.109
AGCGAGAC,0.032
AGGGAAAC,-0.149
ACAGGAGC,-0.0817
AGGTGTGC,-0.144
GTCTATCA,-0.0978
ATCTATCG,-0.0923
GCACTTAC,0.14
CTAATTGA,-0.0684
CTGATGAC,0.00958
AACGGAGC,0.0989
GGAGGTCA,-0.0952
TGCCTGAA,-0.219
AATTCCTA,-0.171
CAGCAGAC,-0.0822
ATCCCAGA,-0.132
AACGTAGG,-0.154
CGTTATAG,-0.0457
AGTAGCCC,0.0531
GCATATCC,-0.0252
AGGCATAT,-0.151
ACTTAGCC,-0.0448
AACGACAG,-0.0554
ATCGGGTC,0.231
ACTTAACT,-0.131

# Sample 2 — method: RNA Bind-n-Seq; molecule type: RNA; matrix: in vitro; tested at: not given; reference: input RNA pool; direction: higher = stronger binding
# Target: RING finger protein unkempt homolog, zinc fingers 1-6, GST-SBP tag (UNK, Homo sapiens, UniProt Q9C0B0, residues 30-357)
# Sequence of UniProt Q9C0B0 (30-357, looked up): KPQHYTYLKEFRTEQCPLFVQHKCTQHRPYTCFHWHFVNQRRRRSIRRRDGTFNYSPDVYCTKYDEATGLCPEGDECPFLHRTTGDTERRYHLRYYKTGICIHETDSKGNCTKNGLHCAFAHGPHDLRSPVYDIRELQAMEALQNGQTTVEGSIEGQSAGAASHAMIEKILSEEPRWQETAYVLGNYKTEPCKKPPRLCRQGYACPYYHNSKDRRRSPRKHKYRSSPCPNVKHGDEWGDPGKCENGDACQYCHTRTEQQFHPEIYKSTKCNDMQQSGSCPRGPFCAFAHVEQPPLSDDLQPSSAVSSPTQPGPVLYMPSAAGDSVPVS
# Notes: RNA with constant flanks, human and mouse sites, ends assumed
Sequence,bound/input enrichment [ratio]
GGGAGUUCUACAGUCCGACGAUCCUCCUGUAAUCACUUUUGGAGGGCUGCUUGGAGAAGCUACAGAAGGCAGAAUAAGUGCAAUAGAGUCUCUUUUUGGAGCGUCAUUAACUGGGAUUGCCUAUUCAUUGUUUGCUGGGCAACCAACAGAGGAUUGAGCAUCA,0.218
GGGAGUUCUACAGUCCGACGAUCGAACGAAUUGACUUCUUACCUCACUAUGACACACUGGUUAAAAGUGGCAUGUAUGAAUAUUAUGCCAGUGAAGGACAAAAUCCUUUGCCAUUUGCUCUUGCGGAAUUAAUUGACAAUUCACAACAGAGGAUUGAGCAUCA,0.101
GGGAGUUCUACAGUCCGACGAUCAUUCGCCUUUGUCUUGUACUUCUGUGUUCAUUCUCCUCCCCCACCCCCAAUUUUUGCUAGUGUGUCCACUAUCCCAAUCAAAGAAUUACAGUAUACGUCACCCCAGAACCCGCAGAUGUGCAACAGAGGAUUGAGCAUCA,0.916
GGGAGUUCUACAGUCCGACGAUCGGUUUCAAUGAAACUGAUGAUUUAAAGAGAGCCGAAAGUAUGCUUCAACAAGCAGAUAAAUUAGGUUGCAGACAGUUCGUUACUCCAGCUGAUGUUGUCAGCGGAAACCCCAAACUGAACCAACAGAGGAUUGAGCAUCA,0.153
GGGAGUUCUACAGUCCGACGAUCUGCUACCAGACACUGACAGAAAUGCCUAUCAGGUGUGAGCUCUUUGACCAGAACCUGAAGCUAGCUCUGGAGGUGGCAGAGAAGGCUGGAACUUUUGGACCUGGGUCAUAGGCUGAACCUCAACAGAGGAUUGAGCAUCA,0.148
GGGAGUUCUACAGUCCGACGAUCAUAAUAUUAACUUUUGCUGAGGUUUAUGAGAUUUUCUCACCCCACAUCGCUCCCCUUUUUUUAAAAAGGACUGUUUUGCUAGUGUGAUAAUGAAUAGGUAAGAUAUGAGAUAAUUGCAACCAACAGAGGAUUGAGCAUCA,10.8
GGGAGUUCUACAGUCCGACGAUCCGGUGAUGUCCUUACUGUCCCCAGCCAGGGCCGGGGACCGGUGUUUCACUGAGGACCUGCAUUAGAAACAUUUUUUAAAUUGUUGUACAGGAAGAGAUGUGUCUAAAACAGCAUCUUAAACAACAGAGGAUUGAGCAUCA,5.38
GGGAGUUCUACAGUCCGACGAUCCUGAAGGGGAAAGUUAUCCUCUUUUUGCCCAAGUCACACUUGUGUCAUUUCUUAUACUGUAAACAUGUGGUUCCAAUUCUGAGGUAUUUUCCCGGUUUGUAGGACCCAAAAAGAAGUUAGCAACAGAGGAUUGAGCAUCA,0.594
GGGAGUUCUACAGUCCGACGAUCGAGUCUUAUUUGGAACUUGUGAAGUCCCUGUGUCUGGGGCCAGCACUGAUCCACACAGCUAAGUUUGCACUUGUCUUCCCUCUCAUGUAUCAUACCUGGAAUGGGAUCCGACACUUGAUGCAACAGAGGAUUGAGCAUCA,0.213
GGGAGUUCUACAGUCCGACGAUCUCUUAUGUAGACUUAUCUUCCCUUACAGAGCUGGUCCACUUAAAACUGGCCCGAGACUUUCCCAUUAACCCCAUUUGUCUUCCUGUGGCUUUGAUAAUAUUUGGGAGAUUCUGUUGUGUACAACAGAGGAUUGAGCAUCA,0.507
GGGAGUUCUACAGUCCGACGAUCCCCGCGCCGCCUCCUCCCACCCUGAGCAGAGCCACCGAGGAUGAUAAACACCCAGGACAGUAGUAUUUUGCCGUUGAGUAAGUGUCCCCAGCUCCAGUGCUGCAGGCACAUUGUUCCAGGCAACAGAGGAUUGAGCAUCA,0.208

# Sample 3 — method: universal PBM; molecule type: double-stranded DNA, one strand shown; matrix: in vitro; tested at: 600 nM; direction: higher = stronger binding
# Target: Sal-like protein 4, full length isoform A (SALL4, Homo sapiens, UniProt Q9UJQ4, residues 1-1053)
# Sequence of UniProt Q9UJQ4 (whole entry, looked up): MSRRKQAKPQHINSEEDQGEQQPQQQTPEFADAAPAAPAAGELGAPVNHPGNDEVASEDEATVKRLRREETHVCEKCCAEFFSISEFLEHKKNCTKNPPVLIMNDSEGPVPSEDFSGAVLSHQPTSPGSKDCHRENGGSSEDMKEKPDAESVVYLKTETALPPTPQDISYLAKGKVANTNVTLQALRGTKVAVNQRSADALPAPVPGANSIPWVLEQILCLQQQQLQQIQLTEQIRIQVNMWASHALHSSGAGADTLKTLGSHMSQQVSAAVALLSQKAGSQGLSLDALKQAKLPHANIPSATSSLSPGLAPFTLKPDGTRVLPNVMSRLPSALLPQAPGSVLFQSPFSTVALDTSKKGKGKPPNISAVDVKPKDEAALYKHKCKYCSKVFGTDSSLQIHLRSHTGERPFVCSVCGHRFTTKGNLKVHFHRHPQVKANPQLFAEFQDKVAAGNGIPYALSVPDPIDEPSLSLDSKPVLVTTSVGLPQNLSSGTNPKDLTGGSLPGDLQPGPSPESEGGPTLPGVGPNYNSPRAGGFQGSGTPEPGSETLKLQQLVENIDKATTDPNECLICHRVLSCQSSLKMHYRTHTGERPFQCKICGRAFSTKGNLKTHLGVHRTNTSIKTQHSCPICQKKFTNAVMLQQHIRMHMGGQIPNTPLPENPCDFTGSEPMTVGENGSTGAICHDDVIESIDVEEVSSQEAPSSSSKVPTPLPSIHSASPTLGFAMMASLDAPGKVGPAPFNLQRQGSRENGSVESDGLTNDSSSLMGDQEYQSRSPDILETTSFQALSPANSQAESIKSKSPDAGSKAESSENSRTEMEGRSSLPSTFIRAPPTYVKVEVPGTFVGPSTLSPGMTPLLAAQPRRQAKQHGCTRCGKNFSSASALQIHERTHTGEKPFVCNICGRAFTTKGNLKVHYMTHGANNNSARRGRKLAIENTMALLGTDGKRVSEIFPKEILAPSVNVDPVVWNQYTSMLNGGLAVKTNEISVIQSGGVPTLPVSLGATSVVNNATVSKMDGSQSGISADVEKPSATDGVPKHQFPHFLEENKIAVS
# Notes: 8-mer, flanks averaged, mean of replicates
Sequence,E-score
AAACAACC,0.0398
GCTAAGCA,-0.141
ATTCCGTC,0.0644
TGTGGCAA,-0.00957
GGCGGAGA,-0.164
ATAACGAC,0.146
AAACCTGT,0.135
GTCAAACA,0.0652
CAATGTAG,-0.00787
AGCGTCGA,-0.0259
ACGCCCGA,-0.24
CTGAGCAA,-0.108
CAATCTGC,-0.0736
CTATCCTC,-0.0988
CCGCGACC,-0.368
ATTGCATG,0.224
TGATACAA,0.202
CATGTACC,-0.197
CCGCGATA,-0.00747
ACGCTGCT,-0.09
AGGCTAAC,-0.167

# Sample 4 — method: protein-binding microarray; molecule type: double-stranded DNA, one strand shown; matrix: in vitro; tested at: 2540 nM top; notes: 60-bp whole probe; together with: salmon DNA 0.4 mg/ml; reference: random background probes; direction: higher = stronger binding; shared flanks, not repeated: GCCTAGCAC … GTCTTGATTCGCTTGACGCTGCTG
# Target: Interferon regulatory factor 3, full length, phosphomimetic (IRF3, Homo sapiens, UniProt Q14653, residues 1-427, S386D/S396D/S398D/S402D/T404D/S405D)
# Sequence of UniProt Q14653 (whole entry, unmodified, looked up): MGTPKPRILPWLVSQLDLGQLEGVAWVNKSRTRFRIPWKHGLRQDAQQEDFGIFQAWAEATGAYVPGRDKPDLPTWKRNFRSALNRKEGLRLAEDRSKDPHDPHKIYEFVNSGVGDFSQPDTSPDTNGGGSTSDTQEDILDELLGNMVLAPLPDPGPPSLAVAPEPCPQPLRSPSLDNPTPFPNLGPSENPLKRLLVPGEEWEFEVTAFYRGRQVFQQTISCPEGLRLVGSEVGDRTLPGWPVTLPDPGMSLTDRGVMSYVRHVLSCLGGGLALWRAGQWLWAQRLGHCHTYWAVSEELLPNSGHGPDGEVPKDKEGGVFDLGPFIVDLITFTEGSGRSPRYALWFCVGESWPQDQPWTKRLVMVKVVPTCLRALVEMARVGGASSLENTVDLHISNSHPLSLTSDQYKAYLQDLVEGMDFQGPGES
Sequence,fitted relative affinity [z-score]
AGATATTCAGGTATATAAAGGTGCTAG,0.298
TTAGGTCTCCTTCTCCTTGAGTGCTAG,4.24
TTAGCACTGAGTTTCGATTAGTGCTAG,2.17
GACGCTTTCGACTATCGGGACGTGCTA,0.821
GACGATATCAGTATCAAGACGTGCTAG,1.16
TCATTTCTGAATGTCTTACTGTGCTAG,2.39
TTAGTTATCCTTCTCCTTTAGTGCTAG,5.21
GACGGTATCGGTTTGGGGACGTGCTAG,4.71
TTCACTCTCTGCTTGTATCTGTGCTAG,0.45
TTTTTTTTTTACTTCGGGTGGTGCTAG,1.98
GACGATATCGGTTTCGAGACGTGCTAG,3.97
GACGGTTTCAACACTGGGGACGTGCTA,1.33
CAGCGCGCAGCTGCCAGAACGTGCTAG,-0.634
TCATTTATACCTTAGGTACTGTGCTAG,1.22
TTGGCTTTCCTTTATGTCCTGTGCTAG,3.3
TCAACTTTCTACGTCTGACTGTGCTAG,0.779
TTAGATTTCGGGTTTCGATTAGTGCTA,3.28
TTAGGTTTCAGGTATCGGTTAGTGCTA,3.25
TCACCTTTCAGTTTTCCACTGTGCTAG,3.58
GACGATTTCGGGTTTCGAGAGGTGCTA,2.67
TCATGCTTGTGTCTGGGACTGTGCTAG,-0.605
AACCATTTTGGTTTTCTCTAGTGCTAG,1.8
TTAGCTTTCGGTTCCGGTTAGTGCTAG,7.12

# Sample 5 — target: CCNB2, cyclin fold, Cln2 fusion (human); method: yeast growth competition, sequencing; matrix: yeast; notes: weak parent motif; reference: not given; direction: higher = stronger binding
# Parent: BRCA2 docking peptide (human); CKKRRALDFLSRL
Substitution,normalised enrichment score
C1A,0.476
D8A,0.365
F9A,0.529
K3A,0.526
R5K F9L,1.05
R4A,0.382
R5K,0.457
L10A,1.01
R5A L7A,0.545

# Sample 6 — method: DHFR PCA, deep sequencing; matrix: yeast; together with: (+)-ABA 58 µM; reference: wild-type fitted maximum; direction: higher = stronger binding
# Target: ABI1, truncated, D143A, DHFR fusion (Arabidopsis thaliana)
# Notes: methotrexate growth selection, single substitutions
# Parent: PYL1, truncated, DHFR fusion (Arabidopsis thaliana); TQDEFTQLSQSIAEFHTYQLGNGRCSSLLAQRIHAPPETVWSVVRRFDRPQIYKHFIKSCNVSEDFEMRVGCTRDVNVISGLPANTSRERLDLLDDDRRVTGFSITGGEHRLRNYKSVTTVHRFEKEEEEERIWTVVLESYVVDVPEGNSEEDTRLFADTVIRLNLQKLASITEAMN; partner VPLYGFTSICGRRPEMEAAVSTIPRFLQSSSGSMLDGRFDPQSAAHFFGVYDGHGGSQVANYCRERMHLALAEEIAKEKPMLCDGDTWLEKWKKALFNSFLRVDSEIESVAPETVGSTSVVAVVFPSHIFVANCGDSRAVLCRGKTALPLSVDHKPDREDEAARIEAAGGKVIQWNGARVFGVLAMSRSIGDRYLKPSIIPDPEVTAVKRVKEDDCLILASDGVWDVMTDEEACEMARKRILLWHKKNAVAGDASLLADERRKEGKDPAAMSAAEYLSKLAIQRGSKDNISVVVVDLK
Substitution,relative binding score [%]
L91N,-0.613
N61P,30.6
N149F,4.41
S26I,47.3
G107C,51.4
Y53R,33.3
G71M,12.1
R123S,97.6
K58E,77.2
R98H,84.5
E129W,79.1
C60A,60.1
T86R,74.4
R24I,76.9
G108E,5.83

# Mixed results
Substance,target,assay,test system,setting,how to read,quantity,value
"PhoQ, residues 284 288 289 292 302 303 ASVMEA","PhoP, residues 12 14 15 18 19 LHSVQ (Escherichia coli, UniProt P23836)","Sort-seq, measured: YFP reporter",E. coli,"PhoQ-PhoP variant library, together with: 10 µM Mg2+","reference: high Mg2+ state, higher = stronger signaling",fold induction,5.63
